Experimental data collected from several papers.
Values joined by “and” are separate records of one study, mostly repeats; a detail may differ. ± marks the error that the study gave.

SMILES = CSCC[C@H](NC(=O)[C@@H](NC(=O)[C@H](CC(C)C)NC(=O)[C@@H](NC(=O)[C@H](Cc1c[nH]cn1)NC(=O)CCCCCNC(=O)[C@H](CCCNC(=N)N)NC(=O)[C@H](CCCNC(=N)N)NC(=O)[C@H](CCCNC(=N)N)NC(=O)[C@H](CCC(N)=O)NC(=O)[C@H](CCCNC(=N)N)NC(=O)[C@H](CCCNC(=N)N)NC(=O)[C@H](CCCCN)NC(=O)[C@H](CCCCN)NC(=O)[C@H](CCCNC(=N)N)NC(=O)CNC(=O)[C@@H](N)Cc1ccc(O)cc1)C(C)C)C(C)C)C(=O)N[C@@H](CS)C(=O)N[C@@H](C)C(=O)N[C@H](C(N)=O)[C@@H](C)O; test system = C57BL/6J mice; setting = Alzet osmotic pump, 3 mg/kg, 8 weeks; quantity = serum Glucose; result = 270 mg/dL and 256 mg/dL and 235 mg/dL
SMILES = Cc1ccccc1-c1ccc(-c2nc(-c3ccc(CN(C)CCCC(=O)O)c([18F])c3)no2)cc1C(F)(F)F; test system = rat, liver; setting = 2 h; quantity = tracer uptake; result = 2.15 %ID/g
SMILES = N#[11C]c1ccc(-c2csc(NN=C3CCCC3)n2)cc1; assay = dynamic PET/CT; test system = C57BL/6 mouse, lung; setting = intravenous, dose not given, 1.0 min; quantity = peak radioactivity uptake; result = 0.99 SUV
SMILES = CSCC[C@H](N)C(=O)N[C@@H](C)C(=O)N[C@@H](CCCNC(=N)N)C(=O)N[C@@H](CCCNC(=N)N)C(=O)N[C@@H](CC(=O)O)C(=O)N[C@@H](CCCCN)C(=O)N[C@H](C(=O)N[C@@H](CC(=O)O)C(=O)N[C@@H](Cc1ccccc1)C(=O)N[C@@H](C)C(=O)N[C@@H](CCCNC(=N)N)C(=O)N[C@@H](CCCNC(=N)N)C(=O)N[C@@H](CCCNC(=N)N)C(=O)N[C@@H](CCCNC(=N)N)C(=O)NCCCCCC(=O)NCCCCC(NC(=O)CCCCCNC(=O)[C@H](CCCNC(=N)N)NC(=O)[C@H](CCCNC(=N)N)NC(=O)[C@H](CCCNC(=N)N)NC(=O)[C@H](CCCNC(=N)N)NC(=O)[C@H](C)NC(=O)[C@H](Cc1ccccc1)NC(=O)[C@H](CC(=O)O)NC(=O)[C@@H](NC(=O)[C@H](CCCCN)NC(=O)[C@H](CC(=O)O)NC(=O)[C@H](CCCNC(=N)N)NC(=O)[C@H](CCCNC(=N)N)NC(=O)[C@H](C)NC(=O)[C@@H](N)CCSC)[C@@H](C)O)C(=O)NCCCCC(NC(=O)C(CCCCNC(=O)CCCCCNC(=O)[C@H](CCCNC(=N)N)NC(=O)[C@H](CCCNC(=N)N)NC(=O)[C@H](CCCNC(=N)N)NC(=O)[C@H](CCCNC(=N)N)NC(=O)[C@H](C)NC(=O)[C@H](Cc1ccccc1)NC(=O)[C@H](CC(=O)O)NC(=O)[C@@H](NC(=O)[C@H](CCCCN)NC(=O)[C@H](CC(=O)O)NC(=O)[C@H](CCCNC(=N)N)NC(=O)[C@H](CCCNC(=N)N)NC(=O)[C@H](C)NC(=O)[C@@H](N)CCSC)[C@@H](C)O)NC(=O)CCCCCNC(=O)[C@H](CCCNC(=N)N)NC(=O)[C@H](CCCNC(=N)N)NC(=O)[C@H](CCCNC(=N)N)NC(=O)[C@H](CCCNC(=N)N)NC(=O)[C@H](C)NC(=O)[C@H](Cc1ccccc1)NC(=O)[C@H](CC(=O)O)NC(=O)[C@@H](NC(=O)[C@H](CCCCN)NC(=O)[C@H](CC(=O)O)NC(=O)[C@H](CCCNC(=N)N)NC(=O)[C@H](CCCNC(=N)N)NC(=O)[C@H](C)NC(=O)[C@@H](N)CCSC)[C@@H](C)O)C(N)=O)[C@@H](C)O (stereo partly drawn); test system = C57BL/6 mouse female, skull; setting = dose not given, 6 h; scale = relative to: total; quantity = mean tissue distribution; result = 13.9%
SMILES = O=C(c1cc(Cc2n[nH]c(=O)c3ccccc23)ccc1F)N1CC(CNC2CC2)C1; test system = Wistar Han rat, female, blood; setting = oral, 60 mg/kg daily, 4 weeks; quantity = haematocrit; result = 31.5 ± 2.7%
SMILES = CC[C@H](C)[C@H](NC(=O)[C@H](CCCCN)NC(=O)CNC(=O)[C@H](CC(C)C)NC(=O)[C@H](Cc1ccccc1)NC(=O)[C@H](CCCCN)NC(=O)[C@H](CO)NC(=O)[C@H](Cc1ccccc1)NC(=O)[C@H](Cc1c[nH]c2ccccc12)NC(=O)[C@H](CCC(N)=O)NC(=O)[C@@H](NC(=O)[C@H](Cc1ccccc1)NC(=O)CCCCCNC(=O)CN1CCN(CC(=O)O)CCN(CC(=O)O)CCN(CC(=O)O)CC1)C(C)C)C(=O)N[C@@H](CCC(=O)O)C(=O)N1CCC[C@H]1C(=O)N[C@@H](CC(=O)O)C(=O)N[C@H](C(=O)N[C@@H](CO)C(=O)N[C@@H](CCC(N)=O)C(=O)N[C@H](C(=O)N[C@@H](CCC(N)=O)C(=O)N[C@@H](CC(=O)O)C(=O)N1CCC[C@H]1C(=O)N[C@@H](CC(N)=O)C(=O)N[C@@H](CC(=O)O)C(=O)N[C@@H](CCC(N)=O)C(=O)N[C@@H](Cc1ccc(O)cc1)C(=O)N[C@@H](CCC(=O)O)C(=O)N1CCC[C@H]1C(=O)N[C@@H](Cc1ccccc1)C(=O)O)C(C)C)C(C)C [copper-64 labelled]; assay = dynamic PET; test system = mouse, CT26 tumour, untreated, tumour; setting = intravenous, 100 µCi/mouse, 1860 s; quantity = SUVmean; result = 0.84 SUV
SMILES = CCCC[C@H]1C(=O)N(C)[C@@H](CCCC)C(=O)N[C@@H](CCCNC(=O)CN2CCN(CC(=O)O)CCN(CC(=O)O)CCN(CC(=O)O)CC2)C(=O)N[C@H](C(=O)NCC(N)=O)CSCC(=O)N[C@@H](Cc2ccc(O)cc2)C(=O)N(C)[C@@H](C)C(=O)N[C@@H](CC(N)=O)C(=O)N2CCC[C@H]2C(=O)N[C@@H](Cc2c[nH]cn2)C(=O)N[C@@H](CC(C)C)C(=O)N(C)CC(=O)N[C@@H](Cc2c[nH]c3ccccc23)C(=O)N[C@@H](CO)C(=O)N[C@@H](Cc2c[nH]c3ccccc23)C(=O)N1C [gallium-68 labelled]; test system = NOD/SCID mice, CHO-hPD-L1 xenograft, tumour over liver; setting = iv, dose not given, 120 min; scale = relative to: tumour over liver; quantity = tissue-to-tissue ratio; result = 2.1 ± 1.18
SMILES = C=Cc1c(C)c2cc3nc(c(CC(=O)[O-])c4[n-]c(cc5nc(cc1[n-]2)C(C)=C5CC)c(C)c4C(=O)[O-])C(CCC(=O)[O-])C3C.[Cu+2].[Na+].[Na+].[Na+] (stereo not drawn); test system = Wistar rat, male; setting = oral, 500 mg/kg daily, 28 days; quantity = serum alkaline phosphatase; result = 160 ± 28.5 U/L
SMILES = C[C@H](O)[C@@H](NC(=O)[C@H]1CCCN1C(=O)[C@@H](CCCCN)NC(=O)[C@@H](CO)NC(=O)[C@@H](Cc1ccc(O)cc1)NC(=O)[C@@H](CC(N)=O)NC(=O)CCOCCOCCOCCNC(=O)CN1CCN(CC(=O)O)CCN(CC(=O)O)CCN(CC(=O)O)CC1)C(=O)N[C@H](CC(=O)O)C(=O)N[C@H](CCCNC(=N)N)C(=O)N[C@H](CCC(N)=O)C(=O)N[C@H](Cc1ccc(O)cc1)C(=O)N[C@H](Cc1c[nH]cn1)C(=O)N[C@H](Cc1ccccc1)C(N)=O [copper-64 labelled]; test system = C57BL/6J mice, pancreas; setting = intravenous, 1.85 MBq, 0.3333 h, radiolabelled; quantity = tissue uptake; result = 0.51 ± 0.08 %ID/g
SMILES = COc1ccc(CNc2ccc3c(c2)S(=O)(=O)C=C3)cc1; test system = male C57BL/6 mice, blood; setting = intraperitoneal, 20 mg/kg, day 8, group average; quantity = platelet distribution width; result = 14.8%
SMILES = CCc1nnc(-c2c(OC)cc(-c3cnc4cc(-c5cnn(C)c5)ccn34)cc2OC)o1; assay = metabolic stability; test system = rat, liver microsomes; quantity = half-life; result = > 2.48 h
SMILES = O=C1NC2(CC2)COc2ncc(F)cc2[C@H]2COCCN2c2ccn3ncc1c3n2; test system = Sprague-Dawley rat, female, heart; setting = oral, 10 mg/kg/day, 4 weeks, end of treatment; quantity = organ-to-brain weight ratio; result = 67.1 ± 8.36%

For quick reference, copied from above:
SMILES = C[C@H](O)[C@@H](NC(=O)[C@H]1CCCN1C(=O)[C@@H](CCCCN)NC(=O)[C@@H](CO)NC(=O)[C@@H](Cc1ccc(O)cc1)NC(=O)[C@@H](CC(N)=O)NC(=O)CCOCCOCCOCCNC(=O)CN1CCN(CC(=O)O)CCN(CC(=O)O)CCN(CC(=O)O)CC1)C(=O)N[C@H](CC(=O)O)C(=O)N[C@H](CCCNC(=N)N)C(=O)N[C@H](CCC(N)=O)C(=O)N[C@H](Cc1ccc(O)cc1)C(=O)N[C@H](Cc1c[nH]cn1)C(=O)N[C@H](Cc1ccccc1)C(N)=O [copper-64 labelled]; test system = C57BL/6J mice, pancreas; setting = intravenous, 1.85 MBq, 0.3333 h, radiolabelled; quantity = tissue uptake; result = 0.51 ± 0.08 %ID/g
